Assay results gathered from unrelated publications.
Numbered parts are unrelated; each lists some results of a single study. “And” joins repeats or separate records; there may be more than shown.
Chain of UniProt P42336 (whole entry, unmodified, looked up): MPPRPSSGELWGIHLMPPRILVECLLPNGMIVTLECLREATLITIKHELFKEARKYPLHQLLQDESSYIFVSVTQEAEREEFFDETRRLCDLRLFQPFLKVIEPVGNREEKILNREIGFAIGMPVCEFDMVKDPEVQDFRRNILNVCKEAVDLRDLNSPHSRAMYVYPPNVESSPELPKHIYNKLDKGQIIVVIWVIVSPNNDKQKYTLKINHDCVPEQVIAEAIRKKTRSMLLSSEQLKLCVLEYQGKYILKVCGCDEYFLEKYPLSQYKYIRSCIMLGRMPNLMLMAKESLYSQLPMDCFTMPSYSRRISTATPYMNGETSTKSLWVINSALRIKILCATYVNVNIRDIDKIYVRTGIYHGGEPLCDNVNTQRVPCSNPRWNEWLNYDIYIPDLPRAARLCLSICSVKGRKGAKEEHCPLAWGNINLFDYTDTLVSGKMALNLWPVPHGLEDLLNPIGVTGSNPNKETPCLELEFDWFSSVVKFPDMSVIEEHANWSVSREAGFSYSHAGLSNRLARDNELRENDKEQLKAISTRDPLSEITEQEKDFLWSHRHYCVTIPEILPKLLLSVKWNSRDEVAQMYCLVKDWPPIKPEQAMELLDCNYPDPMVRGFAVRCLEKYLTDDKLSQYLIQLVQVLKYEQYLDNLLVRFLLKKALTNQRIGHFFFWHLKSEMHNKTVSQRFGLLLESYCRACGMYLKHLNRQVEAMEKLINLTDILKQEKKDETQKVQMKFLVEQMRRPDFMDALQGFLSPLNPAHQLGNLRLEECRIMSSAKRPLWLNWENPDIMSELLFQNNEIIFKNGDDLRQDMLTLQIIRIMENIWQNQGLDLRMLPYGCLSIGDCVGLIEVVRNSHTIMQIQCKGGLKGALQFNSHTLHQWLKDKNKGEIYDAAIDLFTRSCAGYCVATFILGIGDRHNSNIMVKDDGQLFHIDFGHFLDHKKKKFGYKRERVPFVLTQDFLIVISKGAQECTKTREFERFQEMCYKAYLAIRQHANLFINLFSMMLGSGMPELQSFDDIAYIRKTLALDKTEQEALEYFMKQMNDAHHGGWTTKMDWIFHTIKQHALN
Chain of UniProt P07333 (whole entry, looked up): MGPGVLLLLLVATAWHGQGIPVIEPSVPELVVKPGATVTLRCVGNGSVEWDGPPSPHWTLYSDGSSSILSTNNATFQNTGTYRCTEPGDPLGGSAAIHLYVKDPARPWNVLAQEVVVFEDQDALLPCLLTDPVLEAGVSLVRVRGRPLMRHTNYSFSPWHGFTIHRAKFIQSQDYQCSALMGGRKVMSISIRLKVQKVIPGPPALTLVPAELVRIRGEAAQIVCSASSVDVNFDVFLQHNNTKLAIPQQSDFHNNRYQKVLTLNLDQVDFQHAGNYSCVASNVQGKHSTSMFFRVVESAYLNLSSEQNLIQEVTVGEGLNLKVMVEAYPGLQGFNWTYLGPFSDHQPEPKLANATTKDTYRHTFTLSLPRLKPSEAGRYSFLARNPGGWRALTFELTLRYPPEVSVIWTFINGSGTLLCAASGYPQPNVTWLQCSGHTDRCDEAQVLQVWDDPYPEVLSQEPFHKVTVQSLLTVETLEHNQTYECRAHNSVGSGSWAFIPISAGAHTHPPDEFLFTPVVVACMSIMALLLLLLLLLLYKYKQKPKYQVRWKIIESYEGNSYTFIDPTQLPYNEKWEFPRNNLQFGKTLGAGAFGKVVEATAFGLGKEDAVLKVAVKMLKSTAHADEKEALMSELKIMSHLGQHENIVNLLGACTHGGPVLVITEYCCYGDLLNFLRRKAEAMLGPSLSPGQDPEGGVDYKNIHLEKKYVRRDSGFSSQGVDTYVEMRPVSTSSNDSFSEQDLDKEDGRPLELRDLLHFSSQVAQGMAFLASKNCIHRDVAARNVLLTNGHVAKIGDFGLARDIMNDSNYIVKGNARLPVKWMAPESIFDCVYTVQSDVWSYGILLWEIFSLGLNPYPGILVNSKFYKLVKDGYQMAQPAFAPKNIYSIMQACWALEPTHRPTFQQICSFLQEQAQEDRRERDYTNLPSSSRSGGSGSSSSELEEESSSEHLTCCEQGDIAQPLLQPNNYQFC
Chain of UniProt P42681 (whole entry, looked up): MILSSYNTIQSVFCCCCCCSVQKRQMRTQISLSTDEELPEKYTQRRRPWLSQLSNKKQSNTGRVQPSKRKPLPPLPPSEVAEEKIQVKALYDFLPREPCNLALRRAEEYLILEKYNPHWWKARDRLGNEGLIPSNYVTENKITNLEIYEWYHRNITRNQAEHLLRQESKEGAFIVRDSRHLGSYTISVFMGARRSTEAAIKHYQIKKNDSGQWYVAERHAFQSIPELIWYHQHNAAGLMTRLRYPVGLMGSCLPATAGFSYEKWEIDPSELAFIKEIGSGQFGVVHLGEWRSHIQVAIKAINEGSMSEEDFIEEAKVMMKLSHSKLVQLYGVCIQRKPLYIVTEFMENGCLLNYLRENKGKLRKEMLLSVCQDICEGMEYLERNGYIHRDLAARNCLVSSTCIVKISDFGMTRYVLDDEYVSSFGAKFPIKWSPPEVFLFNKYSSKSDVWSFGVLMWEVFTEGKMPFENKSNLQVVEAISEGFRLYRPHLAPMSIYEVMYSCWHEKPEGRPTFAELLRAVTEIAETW
Chain of UniProt O94921 (whole entry, looked up): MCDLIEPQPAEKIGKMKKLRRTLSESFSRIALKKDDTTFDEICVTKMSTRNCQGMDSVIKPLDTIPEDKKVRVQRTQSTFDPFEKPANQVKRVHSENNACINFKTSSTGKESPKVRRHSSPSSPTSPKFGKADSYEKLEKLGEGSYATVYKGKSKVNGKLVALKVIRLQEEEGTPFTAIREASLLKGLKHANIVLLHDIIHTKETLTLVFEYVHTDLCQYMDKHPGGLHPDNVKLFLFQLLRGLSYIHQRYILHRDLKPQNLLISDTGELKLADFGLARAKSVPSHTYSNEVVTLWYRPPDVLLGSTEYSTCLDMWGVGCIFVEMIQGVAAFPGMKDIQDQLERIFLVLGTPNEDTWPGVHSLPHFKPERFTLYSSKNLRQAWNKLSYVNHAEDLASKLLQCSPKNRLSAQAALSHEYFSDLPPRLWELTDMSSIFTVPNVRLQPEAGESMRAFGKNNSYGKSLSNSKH
Chain of UniProt Q96J92 (whole entry, looked up): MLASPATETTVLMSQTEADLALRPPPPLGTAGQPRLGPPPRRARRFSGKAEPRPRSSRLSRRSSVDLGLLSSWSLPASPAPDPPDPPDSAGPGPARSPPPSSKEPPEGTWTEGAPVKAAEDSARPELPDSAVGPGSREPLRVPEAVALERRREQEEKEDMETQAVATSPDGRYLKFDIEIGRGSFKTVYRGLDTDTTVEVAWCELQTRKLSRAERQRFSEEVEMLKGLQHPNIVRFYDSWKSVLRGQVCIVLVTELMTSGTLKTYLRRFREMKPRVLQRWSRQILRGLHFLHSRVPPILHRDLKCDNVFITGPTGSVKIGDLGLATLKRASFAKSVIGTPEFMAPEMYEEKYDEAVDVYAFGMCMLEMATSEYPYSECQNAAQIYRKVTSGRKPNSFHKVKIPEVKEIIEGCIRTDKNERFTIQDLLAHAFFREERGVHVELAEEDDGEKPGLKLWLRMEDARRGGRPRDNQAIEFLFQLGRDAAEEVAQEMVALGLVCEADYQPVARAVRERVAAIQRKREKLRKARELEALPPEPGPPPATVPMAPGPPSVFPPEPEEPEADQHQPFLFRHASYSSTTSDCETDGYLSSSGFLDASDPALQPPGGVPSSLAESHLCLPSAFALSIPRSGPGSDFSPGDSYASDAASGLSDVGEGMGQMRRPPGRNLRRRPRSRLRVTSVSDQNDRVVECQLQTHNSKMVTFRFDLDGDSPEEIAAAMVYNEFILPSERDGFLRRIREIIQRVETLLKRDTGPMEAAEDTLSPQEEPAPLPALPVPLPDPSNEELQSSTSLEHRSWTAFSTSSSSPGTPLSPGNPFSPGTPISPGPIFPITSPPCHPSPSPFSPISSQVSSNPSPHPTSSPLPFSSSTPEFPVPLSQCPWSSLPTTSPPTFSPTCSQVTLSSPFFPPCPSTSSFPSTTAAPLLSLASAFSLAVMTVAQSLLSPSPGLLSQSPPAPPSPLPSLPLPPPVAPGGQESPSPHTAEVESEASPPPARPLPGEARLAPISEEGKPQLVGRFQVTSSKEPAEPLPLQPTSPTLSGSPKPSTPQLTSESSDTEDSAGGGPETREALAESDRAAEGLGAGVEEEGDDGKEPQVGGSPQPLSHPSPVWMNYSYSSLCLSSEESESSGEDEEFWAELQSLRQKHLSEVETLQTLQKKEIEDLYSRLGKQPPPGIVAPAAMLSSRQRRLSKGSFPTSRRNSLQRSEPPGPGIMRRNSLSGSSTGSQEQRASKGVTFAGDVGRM
Chain of UniProt Q96GD4 (whole entry, looked up): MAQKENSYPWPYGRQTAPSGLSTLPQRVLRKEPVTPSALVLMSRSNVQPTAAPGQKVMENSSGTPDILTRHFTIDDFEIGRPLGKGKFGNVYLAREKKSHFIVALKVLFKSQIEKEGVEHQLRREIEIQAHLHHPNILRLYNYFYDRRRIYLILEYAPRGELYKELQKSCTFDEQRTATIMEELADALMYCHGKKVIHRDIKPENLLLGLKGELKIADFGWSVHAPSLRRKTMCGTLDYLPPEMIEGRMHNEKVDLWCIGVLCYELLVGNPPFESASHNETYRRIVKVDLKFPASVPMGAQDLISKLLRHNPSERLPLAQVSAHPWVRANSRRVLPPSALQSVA

Block 1 — read-out: enzyme activity; action: inhibitor; tested at: 0.5 µM; reference: control
Target: Dual serine/threonine and tyrosine protein kinase (DSTYK, Homo sapiens, UniProt Q6XUX3)
Construct (Q6XUX3 1-929): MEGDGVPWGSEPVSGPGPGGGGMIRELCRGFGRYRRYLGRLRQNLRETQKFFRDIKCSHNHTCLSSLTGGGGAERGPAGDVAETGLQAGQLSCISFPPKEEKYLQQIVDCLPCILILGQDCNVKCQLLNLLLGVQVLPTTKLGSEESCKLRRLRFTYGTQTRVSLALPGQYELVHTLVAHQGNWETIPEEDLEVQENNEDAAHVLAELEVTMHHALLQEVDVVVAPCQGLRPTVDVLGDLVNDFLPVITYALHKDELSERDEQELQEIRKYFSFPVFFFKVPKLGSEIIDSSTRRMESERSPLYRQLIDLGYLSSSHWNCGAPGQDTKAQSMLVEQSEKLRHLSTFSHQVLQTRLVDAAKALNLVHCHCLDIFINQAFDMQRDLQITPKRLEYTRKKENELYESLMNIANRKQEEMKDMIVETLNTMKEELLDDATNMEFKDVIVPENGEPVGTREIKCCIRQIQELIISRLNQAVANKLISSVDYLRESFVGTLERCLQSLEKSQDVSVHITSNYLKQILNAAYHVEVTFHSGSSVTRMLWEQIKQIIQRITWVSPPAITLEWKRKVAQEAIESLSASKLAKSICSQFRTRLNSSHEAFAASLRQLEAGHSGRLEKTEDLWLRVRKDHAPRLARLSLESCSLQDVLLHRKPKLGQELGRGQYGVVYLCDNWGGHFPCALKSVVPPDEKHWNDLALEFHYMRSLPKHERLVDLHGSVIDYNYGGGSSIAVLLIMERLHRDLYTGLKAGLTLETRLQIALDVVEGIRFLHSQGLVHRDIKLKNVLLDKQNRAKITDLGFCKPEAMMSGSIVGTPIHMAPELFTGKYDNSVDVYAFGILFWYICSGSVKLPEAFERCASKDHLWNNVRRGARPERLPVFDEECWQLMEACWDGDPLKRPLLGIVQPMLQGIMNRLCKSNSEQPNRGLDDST
SMILES	remaining activity [%]
CN(C)CCCn1cc(C2=C(c3c[nH]c4ccccc34)C(=O)NC2=O)c2ccccc21	95
CC(C)[C@H](CO)Nc1nc(Nc2cccc(Cl)c2)c2ncn(C(C)C)c2n1	105
CS(=O)(=O)CCNCc1ccc(-c2ccc3ncnc(Nc4ccc(OCc5cccc(F)c5)c(Cl)c4)c3c2)o1	108
Nc1[nH]nc2nnc(-c3c(-c4ccccc4)nn4ccccc34)cc12	95.9
CC(=O)O/N=C1/C(c2c(O)[nH]c3cc(Br)ccc23)=Nc2ccccc21	81.1
O=C(Nc1ccc(Cl)cc1)c1ccccc1NCc1ccncc1	94.7
O=c1cc(N2CCOCC2)oc2c1ccc1ccccc12	110
O=C1NC(=O)/C(=C/c2ccc3nccnc3c2)S1	89.9
Cc1nc(Nc2ncc(C(=O)Nc3c(C)cccc3Cl)s2)cc(N2CCN(CCO)CC2)n1	99.4
CCN1/C(=C/C(C)=O)Sc2ccc(OC)cc21	90.6
CCOc1cc2ncnc(Nc3cccc(Br)c3)c2cc1OCC	101

Block 2 — cell line: mouse MPNST tumor cells; technique: high-content immunofluorescence imaging; measured: nuclear SOX9; tested at: 10 µM; time: 12 h; notes: mean of 2 replicates; reference: DMSO control; direction: higher = more nuclear SOX9
Compound	nuclear SOX9 intensity
O=C(NCc1ccc(F)cc1)N1CCN2C(=O)OC(c3ccccc3)(c3ccccc3)C2C1 (stereo not shown)	126 % of DMSO
CCC(=O)NC1CCc2cccc(OC)c2C1 (stereo not shown)	121 % of DMSO
Cn1c(=O)c2c(ncn2C)n(C)c1=O	93.4 % of DMSO and 118 % of DMSO
Cc1ccccc1C(=O)N1CCc2cc(-c3nc(NC(=O)Cc4ccc5c(c4)OCO5)sc3C)ccc21	110 % of DMSO
CN(C)CCOc1cc(-c2cn[nH]c2)ccc1NC(=O)C1COc2ccccc2O1 (stereo not shown)	113 % of DMSO
CCCOc1ccc(Br)cc1-c1cc(-c2ccc(Cl)cc2)[nH]c1-c1ccncc1	136 % of DMSO
Nc1ccn([C@H]2CC[C@@H](CO)O2)c(=O)n1	106 % of DMSO and 113 % of DMSO
CN(c1ccccc1CNc1nc(Nc2ccc3c(c2)CC(=O)N3)ncc1C(F)(F)F)S(C)(=O)=O	64.9 % of DMSO
COC[C@H](C)Oc1cc(O[C@@H](C)Cc2ccccc2)cc(C(=O)Nc2ccc(C(=O)O)cn2)c1	132 % of DMSO
O=C(CCCN1CC=C(n2c(=O)[nH]c3ccccc32)CC1)c1ccc(F)cc1	96.8 % of DMSO
CN1CCN(C(=O)c2cc3cc(Cl)ccc3[nH]2)CC1	125 % of DMSO
O=C(O)c1ccccc1NC(=O)N1CCC(c2ccccc2C(F)(F)F)CC1	121 % of DMSO

Block 3 — technique: competition with immobilised ligand; tested at: 0.1 µM
SMILES: Cn1cc(Cl)c2c(Oc3c(F)cc(Nc4cc(Cl)nc(N)n4)cc3F)ccnc21
target	test	remaining binding [%]
WNK4 (Homo sapiens, UniProt Q96J92)	cell-free assay	100
CDK14 (Homo sapiens, UniProt O94921)	cell-free assay	100
Macrophage colony-stimulating factor 1 receptor, autoinhibited (CSF1R, Homo sapiens, UniProt P07333)	cell-free assay	89
PIK3CA (Homo sapiens, UniProt P42336, E545K)	cell-free assay	78
Aurora kinase B (AURKB, Homo sapiens, UniProt Q96GD4)	cell-free assay	78
eIF-2-alpha kinase GCN2, C-terminal kinase domain (EIF2AK4, Homo sapiens, UniProt Q9P2K8, S808G)	cell-free assay	100
PIK3CA (Homo sapiens, UniProt P42336, E542K)	cell-free assay	89
TXK (Homo sapiens, UniProt P42681)	binding	100

Block 4
SMILES: CC(=O)N[C@@H](Cc1c[nH]c2ccccc12)C(=O)N[C@@H](CCC(=O)C=[N+]=[N-])C(=O)OC(C)C
system	setting	remaining compound
mouse intestinal homogenate	5 µM, 0 h, together with: bestatin 10 µM	100%
mouse intestinal homogenate	5 µM, 0 h, together with: pepstatin A 1.0 µM	100%
mouse intestinal homogenate	5 µM, 0.05 h, no inhibitor	0.288%
C57BL/6 CES1-/- mouse GI homogenate	20 µM, 60 min, pH 7.4	11%
mouse EL4 tumour homogenate	5 µM, 0 h, no inhibitor	100%
mouse intestinal homogenate	5 µM, 1 h, together with: aprotinin 0.8 µM	5.58%
mouse intestinal homogenate	5 µM, 1 h, together with: bestatin 10 µM	0.4%
mouse intestinal homogenate	5 µM, 0 h, together with: Pefabloc 1 mM	100%
mouse intestinal homogenate	5 µM, 0.05 h, together with: Pefabloc 1 mM	22%
